Experimental data from different studies.
Compare with care: the assays were run in different laboratories. ± marks the error that the study gave.

Nc1cnc(Cl)cc1NC(=O)Nc1cc(C(F)F)ns1 — concentration (MALDI MSI; NSG mouse, non-tumor bearing, brain; intraperitoneal, dose not given, 1 h): 1300 ± 200 nM
CC(C)=CCC/C(C)=C\CCn1cc(CC(P(=O)(O)O)P(=O)(O)O)nn1 — Vd (CD-1 mouse, plasma; intravenous, 0.5 mg/kg, single dose): 144 L/kg
CCN(CC)CCOc1ccc(-c2nnn(Cc3ccc(OC)cc3)c2N)cc1 — half-life (metabolic stability; rat, plasma): > 6.21 h
N#[11C]c1ccc(-c2csc(NN=C3CCCC3)n2)cc1 — uptake in small intestine with contents (C57BL/6 mouse, male; intravenous, 3 MBq, 60 min): 26.4 ± 3.43 %ID/g
CC(C)[C@H](NC(=O)[C@@H](NC(=O)[C@H](CCCNC(=N)N)NC(=O)[C@H](CCCNC(=N)N)NC(=O)[C@H](CCCNC(=N)N)NC(=O)[C@H](CCC(N)=O)NC(=O)[C@H](CCCNC(=N)N)NC(=O)[C@H](CCCNC(=N)N)NC(=O)[C@H](CCCCN)NC(=O)[C@H](CCCCN)NC(=O)[C@H](CCCNC(=N)N)NC(=O)CN)[C@@H](C)O)C(=O)N[C@H](C(=O)N[C@@H](CO)C(=O)N1CCC[C@H]1C(=O)O)[C@@H](C)O — kidney weight (ICR mouse, male, right kidney; intranasal, 20 mg/kg daily, 4 weeks): 0.313 ± 0.027 g
CCN(CCCCOc1ccc(CCC(=O)N2CCC(Cc3ccccc3)CC2)cc1OC)Cc1ccccc1 — excretion rate (Sprague-Dawley rats, both sexes, faeces; oral gavage, 25 mg/kg, 24 to 48 h; reference: dose): 0.814 ± 0.0763%
O=C1NC2(CC2)COc2ncc(F)cc2[C@H]2COCCN2c2ccn3ncc1c3n2 — organ-to-brain weight ratio (Sprague-Dawley rat, male, testes; oral, 10 mg/kg/day, 4 weeks, end of treatment): 156 ± 12.5%
CSCC[C@H](N)C(=O)N[C@@H](C)C(=O)N[C@@H](CCCNC(=N)N)C(=O)N[C@@H](CCCNC(=N)N)C(=O)N[C@@H](CC(=O)O)C(=O)N[C@@H](CCCCN)C(=O)N[C@H](C(=O)N[C@@H](CC(=O)O)C(=O)N[C@@H](Cc1ccccc1)C(=O)N[C@@H](C)C(=O)N[C@@H](CCCNC(=N)N)C(=O)N[C@@H](CCCNC(=N)N)C(=O)N[C@@H](CCCNC(=N)N)C(=O)N[C@@H](CCCNC(=N)N)C(=O)NCCCCCC(=O)NCCCCC(NC(=O)CCCCCNC(=O)[C@H](CCCNC(=N)N)NC(=O)[C@H](CCCNC(=N)N)NC(=O)[C@H](CCCNC(=N)N)NC(=O)[C@H](CCCNC(=N)N)NC(=O)[C@H](C)NC(=O)[C@H](Cc1ccccc1)NC(=O)[C@H](CC(=O)O)NC(=O)[C@@H](NC(=O)[C@H](CCCCN)NC(=O)[C@H](CC(=O)O)NC(=O)[C@H](CCCNC(=N)N)NC(=O)[C@H](CCCNC(=N)N)NC(=O)[C@H](C)NC(=O)[C@@H](N)CCSC)[C@@H](C)O)C(=O)NCCCCC(NC(=O)C(CCCCNC(=O)CCCCCNC(=O)[C@H](CCCNC(=N)N)NC(=O)[C@H](CCCNC(=N)N)NC(=O)[C@H](CCCNC(=N)N)NC(=O)[C@H](CCCNC(=N)N)NC(=O)[C@H](C)NC(=O)[C@H](Cc1ccccc1)NC(=O)[C@H](CC(=O)O)NC(=O)[C@@H](NC(=O)[C@H](CCCCN)NC(=O)[C@H](CC(=O)O)NC(=O)[C@H](CCCNC(=N)N)NC(=O)[C@H](CCCNC(=N)N)NC(=O)[C@H](C)NC(=O)[C@@H](N)CCSC)[C@@H](C)O)NC(=O)CCCCCNC(=O)[C@H](CCCNC(=N)N)NC(=O)[C@H](CCCNC(=N)N)NC(=O)[C@H](CCCNC(=N)N)NC(=O)[C@H](CCCNC(=N)N)NC(=O)[C@H](C)NC(=O)[C@H](Cc1ccccc1)NC(=O)[C@H](CC(=O)O)NC(=O)[C@@H](NC(=O)[C@H](CCCCN)NC(=O)[C@H](CC(=O)O)NC(=O)[C@H](CCCNC(=N)N)NC(=O)[C@H](CCCNC(=N)N)NC(=O)[C@H](C)NC(=O)[C@@H](N)CCSC)[C@@H](C)O)C(N)=O)[C@@H](C)O (stereo partly drawn) — mean tissue distribution (C57BL/6 mouse female, ovary; dose not given, 3 h; reference: total): 0.93%
CC[C@H](C)[C@H](NC(=O)[C@H](CC(C)C)NC(=O)CNC(=O)[C@H](Cc1c[nH]cn1)NC(=O)[C@@H](NC(=O)[C@H](Cc1c[nH]c2ccccc12)NC(=O)[C@H](CCCCN)NC(=O)CNC(=O)[C@@H](NC(=O)[C@H](Cc1c[nH]cn1)NC(=O)[C@H](Cc1c[nH]cn1)NC(=O)[C@@H](NC(=O)CNC(=O)[C@H](Cc1c[nH]cn1)NC(=O)[C@H](Cc1ccccc1)NC(=O)[C@H](CC(C)C)NC(=O)[C@H](CC(C)C)NC(=O)CNC(=O)[C@H](CC(C)C)NC(=O)[C@@H](N)Cc1ccccc1)C(C)C)C(C)C)[C@@H](C)CC)C(=O)N[C@@H](Cc1c[nH]cn1)C(=O)NCC(=O)N[C@@H](Cc1c[nH]cn1)C(=O)N[C@@H](Cc1c[nH]cn1)C(N)=O — acute toxic concentration (zebrafish embryos 4 hpf, E3 medium; 1 h): 5 µM
CCCC[C@H]1C(=O)N(C)[C@@H](CCCC)C(=O)N[C@@H](CCCNC(=O)CN2CCN(CC(=O)O)CCN(CC(=O)O)CCN(CC(=O)O)CC2)C(=O)N[C@H](C(=O)NCC(N)=O)CSCC(=O)N[C@@H](Cc2ccc(O)cc2)C(=O)N(C)[C@@H](C)C(=O)N[C@@H](CC(N)=O)C(=O)N2CCC[C@H]2C(=O)N[C@@H](Cc2c[nH]cn2)C(=O)N[C@@H](CC(C)C)C(=O)N(C)CC(=O)N[C@@H](Cc2c[nH]c3ccccc23)C(=O)N[C@@H](CO)C(=O)N[C@@H](Cc2c[nH]c3ccccc23)C(=O)N1C [gallium-68 labelled] — tissue-to-tissue ratio (NOD/SCID mice, CHO-hPD-L1 xenograft, tumour over liver; iv, dose not given, 10 min; reference: tumour over liver): 0.48 ± 0.11
CC[C@H](C)[C@H](NC(=O)[C@H](CCCCN)NC(=O)CNC(=O)[C@H](CC(C)C)NC(=O)[C@H](Cc1ccccc1)NC(=O)[C@H](CCCCN)NC(=O)[C@H](CO)NC(=O)[C@H](Cc1ccccc1)NC(=O)[C@H](Cc1c[nH]c2ccccc12)NC(=O)[C@H](CCC(N)=O)NC(=O)[C@@H](NC(=O)[C@H](Cc1ccccc1)NC(=O)CCCCCNC(=O)CN1CCN(CC(=O)O)CCN(CC(=O)O)CCN(CC(=O)O)CC1)C(C)C)C(=O)N[C@@H](CCC(=O)O)C(=O)N1CCC[C@H]1C(=O)N[C@@H](CC(=O)O)C(=O)N[C@H](C(=O)N[C@@H](CO)C(=O)N[C@@H](CCC(N)=O)C(=O)N[C@H](C(=O)N[C@@H](CCC(N)=O)C(=O)N[C@@H](CC(=O)O)C(=O)N1CCC[C@H]1C(=O)N[C@@H](CC(N)=O)C(=O)N[C@@H](CC(=O)O)C(=O)N[C@@H](CCC(N)=O)C(=O)N[C@@H](Cc1ccc(O)cc1)C(=O)N[C@@H](CCC(=O)O)C(=O)N1CCC[C@H]1C(=O)N[C@@H](Cc1ccccc1)C(=O)O)C(C)C)C(C)C [copper-64 labelled] — tissue uptake (C57BL/6 mice, male, tumour-free, blood; 1 h): 3.07 ± 1.3 %ID/g
COCC1CN(C2CCN(c3cc(OC)c(Nc4ncc(Br)c(Nc5ccc6c(c5P(C)(C)=O)OCCO6)n4)cc3C)CC2)C1 — treatment-related AEs leading to death (EGFR-mutant NSCLC patients; oral, 30 mg once daily): 0%

Some of these lines once more:
CC(C)=CCC/C(C)=C\CCn1cc(CC(P(=O)(O)O)P(=O)(O)O)nn1 — Vd (CD-1 mouse, plasma; intravenous, 0.5 mg/kg, single dose): 144 L/kg
